Results from different studies.
Protocols differ between the studies behind these lines. In brackets after ≈: the same amount, converted by molar mass.

For `Nc1ccc(S(=O)(=O)Nc2ncccn2)cc1`, the kinetic solubility was 397 µM (PBS; 2 h, pH 7.4, 25 °C).
With `Cc1ccc(NC(C)(C)C(=O)Nc2ccc(F)c(Cl)c2)cc1S(=O)(=O)N1CCOCC1` the kinetic solubility was 110 µM (water).
With `CC(/C=C/C=C(\C)C(=O)O)=C\C=C\C=C(C)\C=C\C=C(/C)C(=O)O` the solubility was 3.2 µg/mL (≈ 0.00974 mM) (shake flask; FaSSIF; 1 h, pH 6.5, 37 °C).
The solubility of `COc1cc(Cc2cnc(N)nc2N)cc(OC)c1OC` is reported as 12900 µg/mL (≈ 44.3 mM) (shake flask; simulated gastric fluid; pH 1.2, acidic).
The kinetic solubility of `COc1ccc2c(c1)C(=O)CCc1ccccc1C(=O)N2` is reported as 50 to 100 µg/mL (nephelometry; aqueous buffer; 30 min, pH 6.5).
For `Cl.O=C(O)CNC(=O)c1ccc(NC(=O)c2cc(Br)c(Br)[nH]2)c(N2CCNCC2)c1`, the solubility was 27 µg/mL (PBS; 24 h, pH 7.4, 25 °C).
`O=C1Nc2ccc(OC(F)(F)F)cc2C(=O)CCc2ccccc21` has a kinetic solubility of at most 12.5 µg/mL (nephelometry; aqueous buffer; 30 min, pH 6.5).
With `CS(=O)(=O)c1cnc(NS(=O)(=O)c2ccc(N)cc2)nc1.Cl` the kinetic solubility was 391 µM (PBS; 2 h, pH 7.4, 25 °C).
`O=C1Nc2ccccc2C(=O)CCCc2ccccc21` gave a kinetic solubility of over 100 µg/mL (nephelometry; aqueous buffer; 30 min, pH 6.5).
`Cc1[nH]c(C(=O)Nc2ccc(C(=O)NCC(=O)O)cc2N2CCNCC2)c(Cl)c1Cl.Cl` has a solubility of 98 µg/mL (PBS; 24 h, pH 7.4, 25 °C).

For quick reference, copied from above:
The solubility of `COc1cc(Cc2cnc(N)nc2N)cc(OC)c1OC` is reported as 12900 µg/mL (≈ 44.3 mM) (shake flask; simulated gastric fluid; pH 1.2, acidic).
